Results from different studies.
Numbered parts are unrelated; each lists some results of a single study.

Block 1 — technique: RNA Bind-n-Seq; form: RNA; sample: in vitro; tested at: 200 nM; notes: whole 134-nt RNA, ends assumed; together with: 150 mM KCl; reference: input library; direction: higher = stronger binding
Target: Ras GTPase-activating protein-binding protein 1, full length (G3BP1, Homo sapiens, UniProt Q13283)
Sequence of UniProt Q13283 (whole entry, looked up): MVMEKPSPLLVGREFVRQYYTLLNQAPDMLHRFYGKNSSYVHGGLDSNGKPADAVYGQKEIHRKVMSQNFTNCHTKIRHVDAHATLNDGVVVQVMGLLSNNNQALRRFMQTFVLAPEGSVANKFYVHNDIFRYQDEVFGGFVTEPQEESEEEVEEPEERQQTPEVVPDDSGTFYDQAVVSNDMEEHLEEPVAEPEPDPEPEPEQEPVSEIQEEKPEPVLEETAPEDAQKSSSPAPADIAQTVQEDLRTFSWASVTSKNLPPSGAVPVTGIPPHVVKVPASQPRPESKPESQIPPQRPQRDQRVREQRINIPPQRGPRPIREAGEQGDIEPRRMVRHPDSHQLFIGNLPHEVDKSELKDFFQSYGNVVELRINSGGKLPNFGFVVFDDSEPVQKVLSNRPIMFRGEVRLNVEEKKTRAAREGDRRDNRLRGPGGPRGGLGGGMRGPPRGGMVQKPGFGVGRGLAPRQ
| Oligonucleotide | log2 enrichment |
| --- | --- |
| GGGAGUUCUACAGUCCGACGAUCUUGCAUUUCGAACGCGUUCUAAGAUGCCCCUGAAAGAUGUUCCCCUGGGCCAAUUAGAGGCAGAGCUCCAAGCUCCAGACAUCACUCCAGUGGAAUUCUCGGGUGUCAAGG | 0.634 |
| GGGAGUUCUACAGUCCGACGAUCUCAAGUCCUGUGCUACACAUCGUAUGUACCGAAUCGGGAGGGUUUGGGUUUGGGAAAGUAUUAUGUUACGCCGUUCGGAUCUGCACUUCCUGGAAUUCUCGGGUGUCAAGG | 1 |
| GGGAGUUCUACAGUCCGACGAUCUCCUGUGCUACACAUCGUAUGUACCGAAUCGGGGUUUUUGGGGUUUUUGGGUUUUUGGGGAAAGUAUUAUGUUACGCCGUUCGGAUCUGCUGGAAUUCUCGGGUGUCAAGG | 0.251 |
| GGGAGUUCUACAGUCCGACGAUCCACAGACAACACGCACCCACACAGACACAGAGGGAAAAAGUUGGGAUGGGGACAGGGUGCACAGCAGGGCGGGGUAGGACCCCAGCCCCUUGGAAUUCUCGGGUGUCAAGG | 0.74 |
| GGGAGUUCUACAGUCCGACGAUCUGUUUAUCCAACAUAUGAUUUUGCCUGCCCCAUAGUUGACAGCAUCGAAGGUGUUACACAUGCCCUGAGAACAACAGAAUACCAUGACAGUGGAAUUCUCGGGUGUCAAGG | 0.402 |
| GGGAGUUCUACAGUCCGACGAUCCUCAAGUCCUGUGCUACACAUCGUAUGUACCGAAUCGGAAAAAAAGGUGGUGGAAAGUAUUAUGUUACGCCGUUCGGAUCUGCACUUCCAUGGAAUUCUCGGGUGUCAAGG | -0.365 |
| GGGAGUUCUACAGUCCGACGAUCGCAGGAAGUAAAAACAAAUGGAAAUGCUUCGGAUAGUGGCAGGGGUGGGGGUUGCUAAGGAAAGGGUGGGAUGGGAGUAAAUAAAGAGUUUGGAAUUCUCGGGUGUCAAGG | 0.866 |
| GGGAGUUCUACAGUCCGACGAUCGCAGGAAGUAAAAACAAAUGGAAAUGCUUCGGAUAGUGGCAGGGGUGGGGGUUGCUAAGGAAAGGGUGGGAUGGGAGUGGGAAAAGAGUUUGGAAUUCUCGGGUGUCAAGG | 0.733 |

Block 2 — technique: universal PBM; form: double-stranded DNA, one strand shown; sample: in vitro; tested at: 600 nM; direction: higher = stronger binding
Target: Sal-like protein 4, full length isoform A (SALL4, Homo sapiens, UniProt Q9UJQ4, residues 1-1053)
Sequence of UniProt Q9UJQ4 (whole entry, looked up): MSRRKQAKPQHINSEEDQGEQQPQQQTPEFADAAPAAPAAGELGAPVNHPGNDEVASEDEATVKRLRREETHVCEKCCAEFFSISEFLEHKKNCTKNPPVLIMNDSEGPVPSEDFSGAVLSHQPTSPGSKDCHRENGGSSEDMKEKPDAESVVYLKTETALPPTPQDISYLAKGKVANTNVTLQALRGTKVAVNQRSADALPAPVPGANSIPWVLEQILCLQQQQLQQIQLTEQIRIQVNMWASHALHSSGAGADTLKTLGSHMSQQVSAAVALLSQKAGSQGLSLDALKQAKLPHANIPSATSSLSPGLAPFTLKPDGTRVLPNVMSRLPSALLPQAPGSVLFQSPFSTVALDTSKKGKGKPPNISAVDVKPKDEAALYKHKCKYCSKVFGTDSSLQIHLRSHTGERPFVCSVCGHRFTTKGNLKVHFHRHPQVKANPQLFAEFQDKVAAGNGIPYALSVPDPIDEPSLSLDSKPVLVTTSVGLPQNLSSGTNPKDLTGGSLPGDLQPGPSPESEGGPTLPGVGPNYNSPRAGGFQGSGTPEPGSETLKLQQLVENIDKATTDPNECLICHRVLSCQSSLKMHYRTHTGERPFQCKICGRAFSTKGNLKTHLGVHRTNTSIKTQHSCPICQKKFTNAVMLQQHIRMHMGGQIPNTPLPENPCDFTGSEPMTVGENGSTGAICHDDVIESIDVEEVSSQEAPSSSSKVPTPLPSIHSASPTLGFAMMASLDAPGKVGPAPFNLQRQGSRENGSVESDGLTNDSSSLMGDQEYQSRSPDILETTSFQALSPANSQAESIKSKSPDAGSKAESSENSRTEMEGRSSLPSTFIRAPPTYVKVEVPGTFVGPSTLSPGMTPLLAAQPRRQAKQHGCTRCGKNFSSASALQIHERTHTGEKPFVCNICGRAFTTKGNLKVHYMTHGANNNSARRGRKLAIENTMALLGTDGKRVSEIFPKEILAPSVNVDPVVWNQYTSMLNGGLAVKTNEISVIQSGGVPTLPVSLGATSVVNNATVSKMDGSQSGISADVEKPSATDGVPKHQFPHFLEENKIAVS
Notes: 8-mer, flanks averaged, mean of replicates
| Oligonucleotide | E-score |
| --- | --- |
| AACTCGTC | 0.0112 |
| CTACAAGC | -0.17 |
| CCCGTTGA | -0.138 |
| GTCAATCA | 0.0871 |
| CCTCGGGA | -0.291 |
| CAGTAGCG | -0.184 |
| ACCCTTGA | -0.128 |
| GTGAATCA | 0.0148 |

Block 3 — cell line: HEK-293T/ACE2; tested at: 10 µM; time: 16 h; reference: vehicle
| SMILES | viability [%] |
| --- | --- |
| C=CC[C@@H]1/C=C(\C)C[C@H](C)C[C@H](OC)[C@H]2O[C@@](O)(C(=O)C(=O)N3CCCC[C@H]3C(=O)O[C@H](/C(C)=C/[C@@H]3CC[C@@H](O)[C@H](OC)C3)[C@H](C)[C@@H](O)CC1=O)[C@H](C)C[C@@H]2OC | 108 |
| CN(C)CCC(c1ccc(Cl)cc1)c1ccccn1 (stereo not drawn) | 101 |
| COc1cc(NC(C)CCCN)c2ncccc2c1 (stereo not drawn) | 101 |
| CCCCC1C(=O)N(c2ccccc2)N(c2ccccc2)C1=O | 101 |

Block 4 — mode: inhibitor; tested at: 20 µM
Target: Replicase polyprotein 1ab, nsp13 helicase (rep, Severe acute respiratory syndrome coronavirus 2, UniProt P0DTD1)
| SMILES | inhibition [%] |
| --- | --- |
| Cc1nc(NC(=O)N2CCC[C@H]2C(N)=O)sc1-c1ccnc(C(C)(C)C(F)(F)F)c1 | -2.71 |
| Cc1[nH]cnc1-c1ccc(Cl)cc1 | 8.84 |
| C[C@@H](c1nc(-c2ccc(C#N)cc2)cs1)[C@](O)(Cn1cncn1)c1ccc(F)cc1F | 3.63 |
| O=c1n(CC2CO2)c(=O)n(CC2CO2)c(=O)n1CC1CO1 (stereo not drawn) | 3.71 |
| C=CCNC1=C2C[C@@H](C)C[C@H](OC)[C@H](O)[C@@H](C)/C=C(\C)[C@H](OC(N)=O)[C@@H](OC)/C=C\C=C(/C)C(=O)NC(=CC1=O)C2=O | 7.99 |
| COc1ccc(OC)c(C(O)CNC(=O)CN)c1 (stereo not drawn) | 12.1 |
| CNC(=O)c1cccc2cc(Oc3ccnc4cc(OCC5(N)CC5)c(OC)cc34)ccc12 | 18 |
| Cc1ccccc1N1C(=O)c2cc(S(N)(=O)=O)c(Cl)cc2NC1C (stereo not drawn) | 4.29 |
| c1ccc2c(c1)OC[C@H](CNCCCOc1ccc3c(c1)OCO3)O2 | 7.05 |
| CS(=O)(=O)Nc1ccc(-c2coc3cc(OCc4cccc(C(=O)O)c4)ccc3c2=O)cc1 | 6.5 |
| Cc1nccn1CC1CCc2c(c3ccccc3n2C)C1=O (stereo not drawn) | 2.07 |
| CC(=O)N(CC(O)CO)c1c(I)c(C(=O)NCCO)c(I)c(C(=O)NCC(O)CO)c1I (stereo not drawn) | 2.93 |
| Cn1c(=O)cnn(CCCCN2CCN(c3ncccn3)CC2)c1=O | 6.31 |
| CC1(C)O[C@H]2CC(=O)OC[C@]23[C@H]2CC[C@@]4(C)[C@H](c5ccoc5)OC(=O)[C@H]5O[C@]54[C@]2(C)C(=O)C[C@@H]13 | -1.49 |
| CCC(=O)c1ccc(OCC(O)CN2CCN(c3ccccc3)CC2)cc1 (stereo not drawn) | 2.28 |
| O=C(Nc1nc2ccc(NC(=O)C34C[C@H]5C[C@@H](C3)C[C@@H](C4)C5)cc2s1)c1ccccc1 | -0.31 |
| CC(C)c1ccc(-c2cc(=O)c3ccccc3o2)cc1 | 3.3 |
| O=C(N/N=C/c1ccc([N+](=O)[O-])o1)c1ccc(O)cc1 | 8 |
| Clc1ccc(Nc2nnc(Cc3ccncc3)c3ccccc23)cc1 | 6 |
| C[C@H](Cc1ccc(O)c(O)c1)[C@@H](C)Cc1ccc(O)c(O)c1 | 0.64 |
| C=CCNC(N)=S | 3.29 |
| CN(C)[C@@H]1C(O)=C(C(N)=O)C(=O)[C@@]2(O)C(O)=C3C(=O)c4c(O)ccc(Cl)c4[C@@H](O)[C@H]3C[C@@H]12 | 3.53 |
| COc1cc(-c2ccc(=O)[nH]n2)ccc1OC(F)F | 6.52 |
| CCOc1nc2c(N)ncnc2n1CC | -0.46 |
| FC(F)(F)C(F)(F)C(F)(F)C(F)(F)C(F)(F)C(F)(F)C(F)(F)C(F)(F)Br | 4.11 |

Block 5 — read-out: enzyme activity; mode: inhibitor; tested at: 20 µM; notes: primary screen
Target: Replicase polyprotein 1ab, main protease (rep, Severe acute respiratory syndrome coronavirus 2, UniProt P0DTD1)
| SMILES | inhibition [%] |
| --- | --- |
| O=[N+]([O-])c1ccc(Sc2cccc[n+]2[O-])c2nonc12 | 102 |
| C=CCNC(=O)c1cc([N+](=O)[O-])cc2c(=O)[nH]c(Nc3ccc(Cl)c(Cl)c3)nc12 | 34.7 |
| Cc1sc(N)c(C(=O)c2cccc(C(F)(F)F)c2)c1C | 53.6 |
| CC(C)Nc1cccnc1N1CCN(C(=O)c2cc3cc(NS(C)(=O)=O)ccc3[nH]2)CC1.CS(=O)(=O)O | 82 |

Block 6 — technique: protein-binding microarray; form: double-stranded DNA, one strand shown; sample: in vitro; tested at: 0.8 µM; notes: whole 60-bp probe, no competitor; direction: higher = stronger binding
Target: Centromere-binding protein 1, full length, N-terminal tag (CBF1, Saccharomyces cerevisiae, UniProt P17106, residues 1-351)
Sequence of UniProt P17106 (whole entry, looked up): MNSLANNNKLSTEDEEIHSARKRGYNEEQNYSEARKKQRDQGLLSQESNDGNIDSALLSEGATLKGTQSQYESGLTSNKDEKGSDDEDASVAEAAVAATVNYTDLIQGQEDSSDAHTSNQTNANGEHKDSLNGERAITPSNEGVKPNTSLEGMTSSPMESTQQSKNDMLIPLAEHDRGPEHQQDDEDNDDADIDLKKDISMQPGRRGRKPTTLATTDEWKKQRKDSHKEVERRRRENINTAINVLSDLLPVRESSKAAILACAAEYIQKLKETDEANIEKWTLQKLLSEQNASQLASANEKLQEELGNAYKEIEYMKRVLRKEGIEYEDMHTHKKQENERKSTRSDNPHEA
| Oligonucleotide | fluorescence intensity [a.u.] |
| --- | --- |
| GAAGTTTACTTCGATCAGCTGTTTAGCTTTGCCTAGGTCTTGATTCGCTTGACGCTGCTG | 690 |
| GAAAAATTATCGAAGCACGGGTATAGTTAATTGTAGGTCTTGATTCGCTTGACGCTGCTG | 850 |
| GAATGGATACTGCATCACCAAAAGGACCGCCGCTAGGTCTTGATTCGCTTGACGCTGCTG | 485 |
| GAATTGTTAATCTGTGACTCAATGAAAAGGATCTAGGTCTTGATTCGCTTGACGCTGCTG | 580 |
| CTAGGCACACTTTAACATGTGCATATATGTGTATTCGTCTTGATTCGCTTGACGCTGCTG | 669 |
| CTAGGTTACTATTGTAGTCTGGTGAGTTAATACTTCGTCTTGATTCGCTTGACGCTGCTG | 530 |
| CCTAACTACTATAAGCACGACATATAGCTTCGTACAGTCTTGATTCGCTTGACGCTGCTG | 544 |
| CTAGGCCTGTTTCCTGATGTACCATCCTCCTTATTCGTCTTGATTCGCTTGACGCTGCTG | 475 |

A few entries again (block 3):
| SMILES | viability [%] |
| --- | --- |
| C=CC[C@@H]1/C=C(\C)C[C@H](C)C[C@H](OC)[C@H]2O[C@@](O)(C(=O)C(=O)N3CCCC[C@H]3C(=O)O[C@H](/C(C)=C/[C@@H]3CC[C@@H](O)[C@H](OC)C3)[C@H](C)[C@@H](O)CC1=O)[C@H](C)C[C@@H]2OC | 108 |
| COc1cc(NC(C)CCCN)c2ncccc2c1 (stereo not drawn) | 101 |
| CN(C)CCC(c1ccc(Cl)cc1)c1ccccn1 (stereo not drawn) | 101 |
| CCCCC1C(=O)N(c2ccccc2)N(c2ccccc2)C1=O | 101 |
